Measured values of several laboratories.
Each numbered part is a random draw from the data of one study; scales do not carry over between parts. Substitutions count along the parent as printed.

Set 1
Target: Interferon regulatory factor 7, full length, phosphomimetic (IRF7, Homo sapiens, UniProt Q92985, residues 1-503, S101K/S471D/S472D/S475D/S476D/S477D/S483D/S484D/S487D)
Technique: protein-binding microarray
Form: double-stranded DNA, one strand shown
Matrix: in vitro
Concentration: 250 nM
Setting: 60-bp whole probe
Together with: salmon DNA 0.4 mg/ml
Relative to: random background probes
Direction: higher = stronger binding
All sequences stand within: GCCTAGCAC … GTCTTGATTCGCTTGACGCTGCTG
Construct (chain): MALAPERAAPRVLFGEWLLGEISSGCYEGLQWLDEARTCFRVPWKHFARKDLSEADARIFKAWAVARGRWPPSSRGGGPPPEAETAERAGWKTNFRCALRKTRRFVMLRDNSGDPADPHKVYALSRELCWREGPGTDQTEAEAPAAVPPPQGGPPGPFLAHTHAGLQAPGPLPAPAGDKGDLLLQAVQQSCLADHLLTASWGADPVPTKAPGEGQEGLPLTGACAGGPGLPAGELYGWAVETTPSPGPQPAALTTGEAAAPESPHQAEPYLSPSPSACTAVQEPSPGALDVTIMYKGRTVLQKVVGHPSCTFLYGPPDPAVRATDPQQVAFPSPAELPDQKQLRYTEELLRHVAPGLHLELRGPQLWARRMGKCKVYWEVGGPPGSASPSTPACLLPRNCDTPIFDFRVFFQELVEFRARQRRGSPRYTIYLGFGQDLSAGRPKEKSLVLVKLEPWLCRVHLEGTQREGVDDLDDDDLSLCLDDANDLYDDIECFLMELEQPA
Sequence | log fluorescence
TCACCTCTTTTTTTGGTACTGTGCTAG | 0.668 z-score
GACGGTTTCGGTACCGGGACGTGCTAG | 5.67 z-score
GACGGTATCGGTATCGGTACGTGCTAG | 1.41 z-score
TTTTTTATCAATCATTTTCGTGTGCTA | 1.05 z-score
TCACATATACACTGTGTATCTGTGCTA | 0.171 z-score
GACGGTTCCCTTTTTCTGACGTGCTAG | 2.3 z-score
TTCGGACTGGGTCTCGGTTAGTGCTAG | 0.559 z-score
TTAGAACGGAGTTTCGATTAGTGCTAG | 8.11 z-score
TTAGGTTTTGGGTATCGGTTAGTGCTA | 1.52 z-score
GACGATATCTGGTTTCGAGACGTGCTA | 4.49 z-score
GACGGTCTCGGTCTCAGGACGTGCTAG | 0.659 z-score
TCACCTTTTAATTTTTAACTGTGCTAG | 0.752 z-score
TTAGGTTGCCTACTGCTTTAGTGCTAG | -0.41 z-score
CCCATGCTGGATGAAGTACAGTGCTAG | -0.342 z-score
CACGATTTCGGGTTTCGAGACGTGCTA | 4.49 z-score
CAGAGCCTCAGGCCTCACACAGTGCTA | -0.79 z-score
GACGGTTTCCTTTTGCTGACGTGCTAG | 8.59 z-score
GACGACCTCAGTCTCGAGACGTGCTAG | 0.568 z-score
CTAGATTTCGGGTTTCGATTAGTGCTA | 7.77 z-score

Set 2
Target: RING finger protein unkempt homolog, zinc fingers 1-6, GST-SBP tag (UNK, Homo sapiens, UniProt Q9C0B0, residues 30-357)
Technique: RNA Bind-n-Seq
Form: RNA
Matrix: in vitro
Concentration: not given
Setting: RNA with constant flanks, human-mouse chimeric sites, ends assumed
Relative to: input RNA pool
Direction: higher = stronger binding
All sequences stand within: GGGAGUUCUACAGUCCGACGAUC … CAACAGAGGAUUGAGCAUCA
Residues (chain): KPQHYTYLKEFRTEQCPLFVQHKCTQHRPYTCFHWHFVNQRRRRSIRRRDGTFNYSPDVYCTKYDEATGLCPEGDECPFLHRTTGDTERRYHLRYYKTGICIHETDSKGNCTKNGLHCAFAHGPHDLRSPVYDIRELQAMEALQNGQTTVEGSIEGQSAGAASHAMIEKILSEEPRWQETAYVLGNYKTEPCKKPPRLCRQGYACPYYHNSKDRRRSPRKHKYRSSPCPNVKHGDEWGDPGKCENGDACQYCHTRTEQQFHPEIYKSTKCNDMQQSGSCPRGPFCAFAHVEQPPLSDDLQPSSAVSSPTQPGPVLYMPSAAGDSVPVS
Sequence | bound/input enrichment [ratio]
GGCCUGGGACCGUCCUGGGCUAGUACAAAUAGCGGCAUGGAGGCUCAAGAGGAAAGUUUUGUUAGUGGAGGCAGUGGUAGAGGCCGUCAUGUACGGUCCUUUACUCGAUAGAUGUGUUCU | 0.606
CACACACUCUUCUGCGGGACCCUCAUCUUGCAGGCCCGGGCCUAUGUGGGACCCCGUGUCCUGGCAGUGGUGACUCGCACAGGGUUCUGCACGGCAAAAGGGGGCCUGGUGAGCUCCAUC | 0.0776
AGAUUCCCCCUCCUGAGACCUCCUCCGAAGUUGGAGUCUCUUACAGAUGCCUCAUCCCCUGUUAGCGUUUUAGUUUGGACCACACAACCUUGGACAAUUCCCGCCAAUGAAGCUGUUUGC | 2.03
AACAGAUUGUCUUUAAGCAUUCCAAGCGAGAAUGCUGGGGUGAUCAUUGUUGCCCAUGUGCCUUCUGUAAUAGAUGGAAUGCUGUUCCAUGUUACAUCUUUCCUUCACUCCAGAAUUGUU | 0.122
UGGCGCCUGCGCUCCCCACUCGUGUUUUUAAGUGUAUUUUUAUAAGACAUGUGUAUUUACAAUUGAGCUUUUGUUACAUAAUGCUGAAAACAUCUCUGAGAUUAUGAAAAAUGUUUCAAU | 0.133
AAAGAACUUGCUGAUGAUGAAGAUGAGGAAGACAAUGAUGAUGUUGAACCCAUUUCUGAAUUUCGAUUUGUGCCCAGUGAUAAGUCAGCAUUGGAGGCAAUGUUCACAGCAAUGUGUGAG | 0.301
GGUGGGGUGGUCAUUGCCGUUUGAGCUGCUGAUUUUCAUGAGUCGCCUUCAAAACUCUCGUGUAGGGUUGACACUGUGGGGGGGUGGGGGAUCCAGCUUAUUCUUUUUCCCCAGCCCCCA | 0.445
GAUCCACAGUGGUCUGAGGAACAGCUGAUUGCUGCAAAAUUCUGUUUUGCUGGCCUUGUUAUAGGGCAGACUGAAGUGGACAUCAUGAGUCAUGCUACACAAGCUAUUUUUGAAAUUCUG | 0.205

Set 3
Target: CCNB1, cyclin fold, Cln2 fusion (human)
Technique: yeast growth competition, sequencing
Matrix: yeast
Setting: weak parent motif
Relative to: not given
Direction: higher = stronger binding
Starting sequence: CDKN1A docking peptide (human); SKACRRLFGPVDS
Change | normalised enrichment score
R5D | -0.611
G9L | 0.191
V11I | 0.277
D12W | 0.395
L7W | 0.224
K2Q | 0.291
G9N | 0.348
G9S | 0.237
F8Q | 0.0272
P10T | -0.142
R6F | 0.575
K2A | 0.217
K2I | 0.246
P10N | 0.351
A3L | 0.456
S13A | 0.739

Further values, each from its own experiment
Molecule | target | test | test system | setting | how to read | measurement | value
PhoQ, residues 284 288 289 292 302 303 TNSAEL | PhoP, residues 12 14 15 18 19 HEGLL (Escherichia coli, UniProt P23836) | Sort-seq, item: YFP reporter | E. coli | PhoQ-PhoP variant library, together with: 10 µM Mg2+ | relative to: high Mg2+ state, higher = stronger signaling | fold induction | 1

For quick reference, copied from above (set 1):
Sequence | log fluorescence
GACGGTTTCGGTACCGGGACGTGCTAG | 5.67 z-score
GACGGTATCGGTATCGGTACGTGCTAG | 1.41 z-score
TTCGGACTGGGTCTCGGTTAGTGCTAG | 0.559 z-score
CCCATGCTGGATGAAGTACAGTGCTAG | -0.342 z-score
GACGATATCTGGTTTCGAGACGTGCTA | 4.49 z-score
GACGACCTCAGTCTCGAGACGTGCTAG | 0.568 z-score
CTAGATTTCGGGTTTCGATTAGTGCTA | 7.77 z-score
